# Experimental data of several laboratories.
# Each numbered part is a random draw from the data of one study; scales do not carry over between parts. “And” joins repeats or separate records; there may be more than shown.
# Sequence of UniProt Q8WXR4 (whole entry, looked up): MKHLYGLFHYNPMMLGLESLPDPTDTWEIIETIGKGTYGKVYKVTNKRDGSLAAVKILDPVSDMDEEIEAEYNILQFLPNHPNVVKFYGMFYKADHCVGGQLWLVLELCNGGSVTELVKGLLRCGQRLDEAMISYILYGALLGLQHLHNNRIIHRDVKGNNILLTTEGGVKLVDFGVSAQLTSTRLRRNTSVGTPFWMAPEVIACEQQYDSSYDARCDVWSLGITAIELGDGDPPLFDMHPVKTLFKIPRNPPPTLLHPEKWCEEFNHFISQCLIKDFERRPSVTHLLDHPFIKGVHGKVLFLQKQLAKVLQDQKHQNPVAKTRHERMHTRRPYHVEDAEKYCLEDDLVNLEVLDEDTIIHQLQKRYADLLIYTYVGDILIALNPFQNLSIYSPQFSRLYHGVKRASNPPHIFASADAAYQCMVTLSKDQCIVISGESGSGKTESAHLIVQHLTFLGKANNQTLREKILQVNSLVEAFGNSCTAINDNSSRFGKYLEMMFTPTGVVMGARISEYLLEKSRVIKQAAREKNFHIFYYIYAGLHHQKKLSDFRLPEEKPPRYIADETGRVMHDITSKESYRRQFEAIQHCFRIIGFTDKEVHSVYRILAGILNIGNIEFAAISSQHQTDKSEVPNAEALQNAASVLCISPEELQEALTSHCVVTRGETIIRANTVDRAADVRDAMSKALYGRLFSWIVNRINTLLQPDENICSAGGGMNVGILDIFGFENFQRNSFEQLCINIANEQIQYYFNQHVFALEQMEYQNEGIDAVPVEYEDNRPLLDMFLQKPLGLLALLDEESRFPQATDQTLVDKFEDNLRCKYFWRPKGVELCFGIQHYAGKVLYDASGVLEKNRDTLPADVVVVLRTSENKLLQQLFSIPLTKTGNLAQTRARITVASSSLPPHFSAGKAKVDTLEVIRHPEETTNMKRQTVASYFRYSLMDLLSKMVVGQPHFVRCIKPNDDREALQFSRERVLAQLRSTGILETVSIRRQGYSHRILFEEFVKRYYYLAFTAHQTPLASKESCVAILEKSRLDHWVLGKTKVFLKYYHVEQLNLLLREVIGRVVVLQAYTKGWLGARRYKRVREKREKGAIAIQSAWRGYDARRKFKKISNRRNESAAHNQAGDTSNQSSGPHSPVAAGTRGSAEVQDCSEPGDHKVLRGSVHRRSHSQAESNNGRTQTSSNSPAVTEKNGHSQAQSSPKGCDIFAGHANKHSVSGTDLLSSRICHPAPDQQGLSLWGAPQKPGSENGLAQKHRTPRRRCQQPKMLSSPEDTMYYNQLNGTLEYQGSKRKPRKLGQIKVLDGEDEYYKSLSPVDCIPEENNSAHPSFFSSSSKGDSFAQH
# Sequence of UniProt O15146 (whole entry, looked up): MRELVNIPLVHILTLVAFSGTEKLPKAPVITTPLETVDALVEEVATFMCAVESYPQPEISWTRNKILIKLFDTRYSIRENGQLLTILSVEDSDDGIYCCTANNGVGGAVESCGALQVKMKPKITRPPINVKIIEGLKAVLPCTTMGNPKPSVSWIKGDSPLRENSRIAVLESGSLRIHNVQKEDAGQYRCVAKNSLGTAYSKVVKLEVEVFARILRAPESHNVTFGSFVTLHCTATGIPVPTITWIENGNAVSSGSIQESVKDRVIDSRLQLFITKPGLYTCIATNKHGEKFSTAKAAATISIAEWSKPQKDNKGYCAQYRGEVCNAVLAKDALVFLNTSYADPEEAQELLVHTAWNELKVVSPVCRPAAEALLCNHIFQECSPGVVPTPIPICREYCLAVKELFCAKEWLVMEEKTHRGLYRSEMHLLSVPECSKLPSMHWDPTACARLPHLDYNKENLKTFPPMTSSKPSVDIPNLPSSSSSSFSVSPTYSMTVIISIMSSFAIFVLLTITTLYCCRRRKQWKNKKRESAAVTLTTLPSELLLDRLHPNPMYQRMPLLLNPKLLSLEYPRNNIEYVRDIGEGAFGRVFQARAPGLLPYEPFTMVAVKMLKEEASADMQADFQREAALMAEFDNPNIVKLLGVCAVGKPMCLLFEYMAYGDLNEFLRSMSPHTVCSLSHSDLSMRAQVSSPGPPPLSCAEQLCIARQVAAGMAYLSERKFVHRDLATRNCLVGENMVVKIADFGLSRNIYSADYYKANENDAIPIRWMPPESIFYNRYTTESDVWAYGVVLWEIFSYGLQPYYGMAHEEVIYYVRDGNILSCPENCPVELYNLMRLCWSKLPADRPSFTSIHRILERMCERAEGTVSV
# Sequence of UniProt Q00535 (whole entry, looked up): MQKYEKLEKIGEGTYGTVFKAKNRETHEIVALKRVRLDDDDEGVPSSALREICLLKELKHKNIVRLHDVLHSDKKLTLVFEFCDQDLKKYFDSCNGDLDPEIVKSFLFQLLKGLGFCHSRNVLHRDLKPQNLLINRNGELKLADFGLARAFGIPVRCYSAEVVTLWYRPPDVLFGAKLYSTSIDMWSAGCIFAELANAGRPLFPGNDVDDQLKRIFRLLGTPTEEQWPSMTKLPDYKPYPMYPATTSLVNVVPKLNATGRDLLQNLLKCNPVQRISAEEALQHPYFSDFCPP

# Series 1 — cell line: mouse MPNST tumor cells; technique: high-content nuclear imaging; refers to: cell number; concentration: 10 µM; time: 12 h; notes: mean of 2 replicates; baseline: plate mean; reading: higher = more cells
SMILES,nuclei count
CCN1CCN(C(=O)N[C@@H](C(=O)N[C@@H]2C(=O)N3[C@@H]2SC(C)(C)[C@@H]3C(=O)O)c2ccccc2)C(=O)C1=O,1.85 z-score
Cc1ncc(-c2ccnc(Nc3ccc(S(C)(=O)=O)cc3)n2)n1C(C)C,-4.6 z-score
N[C@H](C(=O)O)[C@H](OCc1cccc(NC(=O)c2ccc(C(F)(F)F)cc2)c1)C(=O)O,1.41 z-score
CC(C)/N=c1\cc2n(-c3ccc(Cl)cc3)c3ccccc3nc-2cc1Nc1ccc(Cl)cc1,0.664 z-score
CN1C[C@H](Nc2cnn(C)c(=O)c2Br)C[C@H](c2ccccc2)C1,1.43 z-score
CCN(CC)CCCCNc1ncc2cc(-c3c(Cl)cccc3Cl)c(NC(=O)NC(C)(C)C)nc2n1,-1.62 z-score
CCCCNc1cc(C(=O)O)cc(S(N)(=O)=O)c1Oc1ccccc1,1.68 z-score and 3.22 z-score and 0.766 z-score
CCC(NC(C)C)C(O)c1ccc(O)c(O)c1 (stereo not drawn),0.343 z-score
CCC(=O)OCC(=O)[C@@]1(OC(=O)CC)[C@H](C)C[C@H]2[C@H]3[C@H]([C@@H](O)C[C@@]21C)[C@@]1(C)C=CC(=O)C=C1C[C@H]3Cl,3.68 z-score

# Series 2 — species: human patients; sample: plasma
# Structure (SMILES): COc1ccc(-c2c(Nc3ccccn3)[nH]c3c(C4=CCCCC4)c(-c4ccccc4)nn3c2=O)cc1
refers to,dose,time,median concentration [ng/mL]
methionine,400 mg once daily,2 h,79600
S-adenosylmethionine,100 mg once daily,0 h,15.4
methionine,150 mg once daily,6 h,90600
methionine,400 mg once daily,8 h,87100
methionine,100 mg once daily,8 h,76800
S-adenosylmethionine,150 mg once daily,8 h,18.3
S-adenosylmethionine,100 mg once daily,6 h,14.8
S-adenosylmethionine,200 mg once daily,0 h,14.1
methionine,200 mg once daily,6 h,117000

# Series 3 — effect on: enzyme activity; action: inhibitor; concentration: 77 µM; baseline: untreated
# Target: DNA polymerase theta, ATPase domain (POLQ, Homo sapiens, UniProt O75417)
# Sequence of UniProt O75417 (whole entry, unmodified, looked up): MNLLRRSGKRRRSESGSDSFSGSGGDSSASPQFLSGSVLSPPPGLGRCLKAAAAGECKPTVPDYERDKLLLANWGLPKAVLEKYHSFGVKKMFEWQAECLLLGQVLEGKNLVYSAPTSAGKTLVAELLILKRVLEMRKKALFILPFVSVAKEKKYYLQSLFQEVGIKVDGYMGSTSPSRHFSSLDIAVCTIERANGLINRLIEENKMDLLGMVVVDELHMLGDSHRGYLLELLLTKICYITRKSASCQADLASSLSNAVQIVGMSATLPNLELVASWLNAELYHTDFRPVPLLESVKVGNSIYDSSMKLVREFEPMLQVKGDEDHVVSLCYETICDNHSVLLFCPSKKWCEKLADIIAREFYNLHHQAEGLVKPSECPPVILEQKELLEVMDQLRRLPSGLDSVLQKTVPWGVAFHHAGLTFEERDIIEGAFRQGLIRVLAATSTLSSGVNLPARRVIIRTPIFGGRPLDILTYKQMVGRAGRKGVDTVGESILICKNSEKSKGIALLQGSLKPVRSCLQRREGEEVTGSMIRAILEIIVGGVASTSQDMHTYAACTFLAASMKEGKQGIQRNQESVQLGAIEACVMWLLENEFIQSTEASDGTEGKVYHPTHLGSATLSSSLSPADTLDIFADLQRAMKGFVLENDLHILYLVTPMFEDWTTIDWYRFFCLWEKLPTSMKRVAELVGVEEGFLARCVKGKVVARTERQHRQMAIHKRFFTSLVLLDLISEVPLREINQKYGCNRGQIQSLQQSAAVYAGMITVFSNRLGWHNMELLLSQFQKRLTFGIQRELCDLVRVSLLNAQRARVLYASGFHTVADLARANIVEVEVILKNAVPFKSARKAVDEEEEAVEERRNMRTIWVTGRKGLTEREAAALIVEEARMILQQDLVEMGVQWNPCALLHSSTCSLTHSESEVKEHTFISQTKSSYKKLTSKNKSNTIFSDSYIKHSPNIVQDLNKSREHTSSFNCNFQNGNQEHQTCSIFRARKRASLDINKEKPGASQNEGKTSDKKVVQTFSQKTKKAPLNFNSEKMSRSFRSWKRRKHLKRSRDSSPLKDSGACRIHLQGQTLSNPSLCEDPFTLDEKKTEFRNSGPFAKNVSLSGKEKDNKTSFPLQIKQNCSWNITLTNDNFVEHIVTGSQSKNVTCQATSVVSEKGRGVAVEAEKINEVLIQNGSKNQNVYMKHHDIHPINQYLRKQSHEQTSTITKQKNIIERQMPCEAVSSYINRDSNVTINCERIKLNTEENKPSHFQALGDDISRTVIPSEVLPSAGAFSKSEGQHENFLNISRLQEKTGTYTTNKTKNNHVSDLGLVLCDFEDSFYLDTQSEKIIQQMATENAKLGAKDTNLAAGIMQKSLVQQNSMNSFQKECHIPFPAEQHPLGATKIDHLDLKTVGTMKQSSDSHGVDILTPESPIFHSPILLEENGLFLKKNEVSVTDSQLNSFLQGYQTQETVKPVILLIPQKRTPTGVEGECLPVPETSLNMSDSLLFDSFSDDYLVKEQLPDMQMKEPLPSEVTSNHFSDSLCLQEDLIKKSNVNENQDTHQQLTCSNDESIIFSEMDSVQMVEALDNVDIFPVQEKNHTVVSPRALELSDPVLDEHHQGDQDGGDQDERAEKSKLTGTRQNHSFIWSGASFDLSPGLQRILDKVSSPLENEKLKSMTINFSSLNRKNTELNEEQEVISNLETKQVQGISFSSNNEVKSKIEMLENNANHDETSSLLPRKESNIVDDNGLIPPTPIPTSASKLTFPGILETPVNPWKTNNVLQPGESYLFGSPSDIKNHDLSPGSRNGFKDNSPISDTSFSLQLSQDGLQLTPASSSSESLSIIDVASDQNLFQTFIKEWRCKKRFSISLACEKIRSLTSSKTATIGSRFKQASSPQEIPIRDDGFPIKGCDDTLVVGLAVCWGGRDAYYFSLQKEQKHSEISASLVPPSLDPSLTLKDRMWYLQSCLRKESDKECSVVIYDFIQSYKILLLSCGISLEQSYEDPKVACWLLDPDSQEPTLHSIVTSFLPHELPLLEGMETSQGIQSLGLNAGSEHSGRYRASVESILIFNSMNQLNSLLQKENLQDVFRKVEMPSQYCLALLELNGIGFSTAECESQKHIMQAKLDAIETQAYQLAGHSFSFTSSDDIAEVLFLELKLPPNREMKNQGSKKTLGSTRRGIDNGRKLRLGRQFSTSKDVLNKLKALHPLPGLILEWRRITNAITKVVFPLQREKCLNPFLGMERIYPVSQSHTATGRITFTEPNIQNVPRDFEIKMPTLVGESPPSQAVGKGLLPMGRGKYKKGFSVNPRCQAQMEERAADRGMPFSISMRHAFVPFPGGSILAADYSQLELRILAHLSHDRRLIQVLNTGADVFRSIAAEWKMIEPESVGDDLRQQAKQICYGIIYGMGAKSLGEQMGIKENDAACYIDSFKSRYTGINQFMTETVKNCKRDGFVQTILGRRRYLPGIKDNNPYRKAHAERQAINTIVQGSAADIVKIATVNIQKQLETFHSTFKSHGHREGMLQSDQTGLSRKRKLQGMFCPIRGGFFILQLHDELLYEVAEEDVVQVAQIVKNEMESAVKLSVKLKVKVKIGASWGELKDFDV
Structure (SMILES),remaining activity
c1ccc2nc(C3=NCCN3)ccc2c1,104%
CC(C)N(CCCNC(=O)Nc1ccc(C(C)(C)C)cc1)C[C@H]1O[C@@H](n2ccc3c(N)ncnc32)[C@H](O)[C@@H]1O,103%
O=C(Nc1ccc(S(=O)(=O)Nc2ccccc2Cl)c(Cl)c1)c1ccccn1,97.1%
Oc1ccc(OCc2ccccc2)cc1,98.8% and 96.6%
N#CC(c1ccc(Cl)cc1)c1c(Cl)cc(-n2ncc(=O)[nH]c2=O)cc1Cl (stereo not drawn),80.6%
CC(C)/N=c1\cc2n(-c3ccc(Cl)cc3)c3ccccc3nc-2cc1Nc1ccc(Cl)cc1,102% and 77%
CCOc1nc(NC(=O)Cc2cc(OC)ccc2OC)cc(N)c1C#N,98.1%
COc1ccc(C[C@@H]2c3cc(OC)c(OC)cc3CC[N@+]2(C)CCC(=O)OCCCCCOC(=O)CC[N@@+]2(C)CCc3cc(OC)c(OC)cc3[C@H]2Cc2ccc(OC)c(OC)c2)cc1OC,95.5% and 106%
COc1ccc([C@@H]2CC(=O)c3c(O)cc(O[C@@H]4O[C@H](CO[C@@H]5O[C@@H](C)[C@H](O)[C@@H](O)[C@H]5O)[C@@H](O)[C@H](O)[C@H]4O)cc3O2)cc1O,95.4% and 93.6%
CN[C@@H]1[C@@H](O)[C@@H](O[C@@H]2[C@@H](O)[C@H](O[C@H]3OC(CN)=CC[C@H]3N)[C@@H](N)C[C@H]2N)OC[C@]1(C)O,101%
CCCC(=O)NCCc1c2n(c3ccc(OC)cc13)CCCc1ccccc1-2,103%

# Series 4 — effect on: cell-free assay; technique: competition with immobilised ligand; concentration: 1 µM
# SMILES: C[C@H](c1cccc(C#N)c1)n1cc(Cl)cc(C(N)=O)c1=N
target,remaining binding
"Serine/threonine-protein kinase/endoribonuclease IRE1 (ERN1, Homo sapiens, UniProt O75460)",69%
"Phosphatidylinositol 4-phosphate 5-kinase type-1 gamma (PIP5K1C, Homo sapiens, UniProt O60331)",99%
"Activin receptor type-1B (ACVR1B, Homo sapiens, UniProt P36896)",100%
"Epidermal growth factor receptor (EGFR, Homo sapiens, UniProt P00533, del747-750/T751S)",100%
"Macrophage colony-stimulating factor 1 receptor, autoinhibited (CSF1R, Homo sapiens, UniProt P07333)",100%
"Myosin-IIIb (MYO3B, Homo sapiens, UniProt Q8WXR4)",92%
"Serine/threonine-protein kinase Sgk1 (SGK1, Homo sapiens, UniProt O00141)",77%
"Serine/threonine-protein kinase DCLK2 (DCLK2, Homo sapiens, UniProt Q8N568)",88%
"Cyclin-dependent kinase 5 (CDK5, Homo sapiens, UniProt Q00535)",100%
"Ephrin type-B receptor 3 (EPHB3, Homo sapiens, UniProt P54753)",78%
"Serine/threonine-protein kinase Nek2 (NEK2, Homo sapiens, UniProt P51955)",100%
"Bone morphogenetic protein receptor type-1A (BMPR1A, Homo sapiens, UniProt P36894)",100%
"Serine/threonine-protein kinase 38 (STK38, Homo sapiens, UniProt Q15208)",87%
"Serine/threonine-protein kinase Nek3 (NEK3, Homo sapiens, UniProt P51956)",66%
"Muscle, skeletal receptor tyrosine-protein kinase (MUSK, Homo sapiens, UniProt O15146)",100%
"Casein kinase II subunit alpha (CSNK2A1, Homo sapiens, UniProt P68400)",67%

# A few entries again (series 1):
SMILES,nuclei count
CCN(CC)CCCCNc1ncc2cc(-c3c(Cl)cccc3Cl)c(NC(=O)NC(C)(C)C)nc2n1,-1.62 z-score
N[C@H](C(=O)O)[C@H](OCc1cccc(NC(=O)c2ccc(C(F)(F)F)cc2)c1)C(=O)O,1.41 z-score
CCC(=O)OCC(=O)[C@@]1(OC(=O)CC)[C@H](C)C[C@H]2[C@H]3[C@H]([C@@H](O)C[C@@]21C)[C@@]1(C)C=CC(=O)C=C1C[C@H]3Cl,3.68 z-score
CC(C)/N=c1\cc2n(-c3ccc(Cl)cc3)c3ccccc3nc-2cc1Nc1ccc(Cl)cc1,0.664 z-score
CCCCNc1cc(C(=O)O)cc(S(N)(=O)=O)c1Oc1ccccc1,1.68 z-score and 3.22 z-score and 0.766 z-score
CCC(NC(C)C)C(O)c1ccc(O)c(O)c1 (stereo not drawn),0.343 z-score
CN1C[C@H](Nc2cnn(C)c(=O)c2Br)C[C@H](c2ccccc2)C1,1.43 z-score
